Assay results of several laboratories.
Values joined by “and” are separate records of one study, mostly repeats; a detail may differ. Numbers after ± are the reported error.

| Compound | target or system | assay | test system | conditions | scale | quantity | result |
| --- | --- | --- | --- | --- | --- | --- | --- |
| CCC(CC)n1c(Cc2cccs2)nc2cc(C(=O)N[C@@H](CC(=O)O)c3ccccc3)ccc21 | – | – | mouse, HFpEF model (HFD plus L-NAME) | ip, 20 mg/kg/day, 2 wk | – | body weight | decreased |
| COC1OC(C)C(OC2OC(C)C(OS(=O)(=O)O)C(OS(=O)(=O)O)C2O)C(OS(=O)(=O)O)C1O (stereo not drawn) | – | – | human plasma | 128 µg/mL | reference: control | APTT prolongation | 1 fold |
| CN1CCCNC(=O)c2cccc(c2)C(=O)NCCCN(C)CCCNc2cccc3c2C(=O)c2cccc(c2C3=O)NCCC1 | SAS | RNA-Seq, refers to: SCO1 mRNA | – | 1 µM, 6 h | reference: untreated cells | log2 fold change | -0.53 |
| O=C(N[C@@H](Cc1ccc(OCCCCC2CCNCC2)cc1)C(=O)O)c1nc2ccccc2o1.O=C(O)C(F)(F)F | – | – | human, platelet-rich plasma | 100 µM, together with: thrombin | – | clot retraction velocity | 0.00432 min⁻¹ and 0.00492 min⁻¹ and 0.0024 min⁻¹ |
| Nc1ncc(-c2cc(-c3cnn(CC(F)(F)F)c3)ncc2F)nc1C(=O)NC1CNCC(F)C1 (stereo not drawn) | DRAK1 | KINOMEscan | – | 1 µM | reference: DMSO control | remaining binding | 11% |
| CC(=O)[O-].O.O.[O-]c1ccc(Br)cc1C=NCCN1CCOCC1.[Zn+2] | – | superoxide scavenging | – | 40 µM | – | inhibition | 6.31% |
| C[C@@H](Nc1c(-c2c(F)cc(C#N)cc2F)c(Cl)nc2ncnn12)C(C)(C)C | – | refers to: detyrosinated tubulin | wild-type mice, brain | intraperitoneal, 1 mg/kg, after last dose | – | duration of effect | 3 days |
| COc1cc2c(NC3CCN(C(C)C)CC3)cc(N3CCOCC3)nc2cc1OCCCN1CCCC1 | – | TMT proteomics, refers to: PPIA | 5xFAD mice, hippocampus | dose not given | reference: wild-type mice | log2 fold change | -0.0155 |
| C=CC(=O)Nc1cccc(Cn2ncc3cnc(Nc4cnn(CCOC)c4)nc32)c1 | human SIK | KINOMEscan | – | 100 nM | reference: control | binding | 85% |
| CC(C)c1ccc(N(C)c2ccc3c(c2)OCC[C@H]3CNc2cnccc2C(=O)O)cc1 | Hs 294T | cell growth or viability, ATP luminescence | – | 7 days | – | IC50 | 0.0668 µM |
| COC1OC(C)C(OS(=O)(=O)O)C(OC2OC(C)C(OS(=O)(=O)O)C(OC3OC(C)C(OS(=O)(=O)O)C(OC4OC(C)C(OS(=O)(=O)O)C(OC5OC(C)C(OS(=O)(=O)O)C(OC6OC(C)C(OS(=O)(=O)O)C(OC7OC(C)C(OS(=O)(=O)O)C(OS(=O)(=O)O)C7O)C6O)C5O)C4O)C3O)C2O)C1O (stereo not drawn) | – | – | human plasma | 128 µg/mL | reference: control | APTT prolongation | 1.2 fold |
| COC1CN([C@H]2CC[C@H]([C@@]3(C)Oc4c(Cl)cc(C(=O)NCc5c(SC)cc(C)[nH]c5=O)c(C)c4O3)CC2)C1 | – | RNA-seq, refers to: MTERF2 mouse homolog | mouse, HT-1376 xenograft, whole blood | dose not given | reference: vehicle | log2 fold change | 0.777 |
| COc1ccc(S(=O)(=O)N2CCc3ccccc3C2)cc1N1CCN(C(=O)c2ccc(F)cc2C(F)(F)F)CC1 | – | stereology, optical fractionator, refers to: tyrosine hydroxylase | rat, 6-OHDA lesion model, substantia nigra pars compacta | 0.3 µg/24 h | reference: lesioned over intact side | TH-immunoreactive cell ratio | 15.1 ± 3.2% |
| COc1cc(O)ccc1CCC(c1ccc(O)cc1)c1cc2c(c(C)c1O)OC(c1ccc(O)cc1)CC2 (mixture of isomers) | – | refers to: RvE3 | human whole blood | 0.3 µM, together with: Escherichia coli | – | amount | 38 pg/mL blood |
| COc1ccc(C([O-])=CC(=O)c2ccc(C(C)(C)C)cc2)cc1.[Ru+2].c1ccc(-c2ccccn2)nc1.c1ccc(-c2ccccn2)nc1 | – | gel electrophoresis | pUC19 plasmid DNA | no light | reference: no compound | relaxed circular DNA increase | 45 to 50% |
| CCCCCCCCCCCCCCCC(=O)OCC(CSC[C@H](N)C(=O)N[C@@H](CO)C(=O)N[C@@H](CCCCN)C(=O)N[C@@H](CCCCN)C(=O)N[C@@H](CCCCN)C(=O)N[C@@H](CCCCN)C(=O)NCCCCCC(=O)N[C@@H](CCCCN)C(=O)N[C@@H](CC(C)C)C(=O)N[C@H](C(=O)N[C@@H](Cc1ccccc1)C(=O)N[C@@H](Cc1ccccc1)C(=O)N[C@@H](Cc1ccc2ccccc2c1)C(=O)O)C(C)C)OC(=O)CCCCCCCCCCCCCCC (stereo partly drawn) | – | – | APP/PS1 mouse, cortex | local injection, dose not given, unit not given | reference: injected over adjacent side | GFAP level | 0.894 and 1.77 and 0.634 and 0.893 and 0.862 and 1.36 and 1.23 |
| Cc1ncsc1-c1ccc(C(C)NC(=O)C2CC(O)CN2C(=O)C(NC(=O)CCCCCCCCCCN2CCCC(Nc3ncc(Cl)c(Nc4ccccc4S(=O)(=O)C(C)C)n3)C2)C(C)(C)C)cc1 (stereo not drawn) | 22Rv1 | RNA-seq, refers to: LIPT2 mRNA | – | concentration not given | reference: DMSO | log2 fold change | -1.15 |
| CNS(=O)(=O)Nc1nccc(Cc2c(C)c3ccc(Oc4ncccc4F)cc3oc2=O)c1F | FTC-133 | cell viability | – | 7 days | – | IC50 | > 1 µM |
